Results gathered from unrelated publications.
Protocols differ between the studies behind these lines. Numbers after ± are the reported error.
T1: itself; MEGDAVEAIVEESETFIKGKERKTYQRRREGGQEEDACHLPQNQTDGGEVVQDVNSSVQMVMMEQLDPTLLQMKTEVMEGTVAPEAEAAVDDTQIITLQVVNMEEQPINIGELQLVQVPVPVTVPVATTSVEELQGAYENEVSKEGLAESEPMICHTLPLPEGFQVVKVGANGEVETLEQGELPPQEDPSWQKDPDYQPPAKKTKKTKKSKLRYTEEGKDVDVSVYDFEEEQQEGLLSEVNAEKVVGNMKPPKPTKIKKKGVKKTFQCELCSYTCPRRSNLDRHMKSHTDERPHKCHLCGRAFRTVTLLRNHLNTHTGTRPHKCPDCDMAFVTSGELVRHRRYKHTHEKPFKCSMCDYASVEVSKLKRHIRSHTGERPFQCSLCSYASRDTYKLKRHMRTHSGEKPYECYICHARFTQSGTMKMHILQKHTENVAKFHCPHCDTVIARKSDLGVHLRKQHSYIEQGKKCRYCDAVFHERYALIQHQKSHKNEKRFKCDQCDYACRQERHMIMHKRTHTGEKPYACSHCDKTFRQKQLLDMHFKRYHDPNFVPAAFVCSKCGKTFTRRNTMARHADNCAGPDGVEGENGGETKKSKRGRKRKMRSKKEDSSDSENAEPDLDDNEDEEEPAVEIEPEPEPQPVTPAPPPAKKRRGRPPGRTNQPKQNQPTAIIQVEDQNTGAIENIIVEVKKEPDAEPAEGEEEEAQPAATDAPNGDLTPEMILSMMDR
T2: itself; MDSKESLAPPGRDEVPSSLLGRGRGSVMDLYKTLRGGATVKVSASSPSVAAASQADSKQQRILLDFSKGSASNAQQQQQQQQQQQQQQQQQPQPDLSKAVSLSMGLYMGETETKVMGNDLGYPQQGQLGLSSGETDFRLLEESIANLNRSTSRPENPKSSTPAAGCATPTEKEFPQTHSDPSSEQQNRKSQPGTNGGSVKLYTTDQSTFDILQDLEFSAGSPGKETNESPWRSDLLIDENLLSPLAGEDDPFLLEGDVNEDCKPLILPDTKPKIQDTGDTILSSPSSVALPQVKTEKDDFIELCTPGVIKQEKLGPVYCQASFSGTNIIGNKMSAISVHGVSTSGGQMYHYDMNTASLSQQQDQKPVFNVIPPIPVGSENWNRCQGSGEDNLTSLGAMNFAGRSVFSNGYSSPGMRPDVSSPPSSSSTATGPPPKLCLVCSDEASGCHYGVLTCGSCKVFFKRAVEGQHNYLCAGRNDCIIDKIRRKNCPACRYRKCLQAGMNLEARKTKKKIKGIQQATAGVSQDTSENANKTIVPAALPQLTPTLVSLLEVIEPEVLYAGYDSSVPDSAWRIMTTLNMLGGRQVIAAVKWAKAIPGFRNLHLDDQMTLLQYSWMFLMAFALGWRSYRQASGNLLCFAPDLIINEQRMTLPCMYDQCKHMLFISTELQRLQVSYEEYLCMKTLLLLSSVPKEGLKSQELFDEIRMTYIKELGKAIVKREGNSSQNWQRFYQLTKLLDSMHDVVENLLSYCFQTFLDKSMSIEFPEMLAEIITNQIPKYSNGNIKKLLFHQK
T3: itself; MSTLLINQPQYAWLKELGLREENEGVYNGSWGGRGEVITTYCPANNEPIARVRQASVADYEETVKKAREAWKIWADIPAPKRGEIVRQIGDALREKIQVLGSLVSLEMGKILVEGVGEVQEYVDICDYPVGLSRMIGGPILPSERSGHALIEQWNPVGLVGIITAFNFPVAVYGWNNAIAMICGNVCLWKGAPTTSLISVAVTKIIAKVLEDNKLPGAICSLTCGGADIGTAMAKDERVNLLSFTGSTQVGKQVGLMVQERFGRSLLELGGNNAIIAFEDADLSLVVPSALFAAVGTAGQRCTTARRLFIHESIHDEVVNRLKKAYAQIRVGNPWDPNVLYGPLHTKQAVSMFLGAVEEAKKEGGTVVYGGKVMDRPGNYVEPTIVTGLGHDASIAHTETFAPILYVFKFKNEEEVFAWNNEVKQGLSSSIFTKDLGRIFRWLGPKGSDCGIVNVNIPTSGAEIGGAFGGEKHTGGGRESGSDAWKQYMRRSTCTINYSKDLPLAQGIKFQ
T4: itself; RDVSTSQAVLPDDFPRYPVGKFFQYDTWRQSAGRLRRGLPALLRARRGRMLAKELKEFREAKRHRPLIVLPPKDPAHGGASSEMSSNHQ
B1: CTCF (Homo sapiens, UniProt P49711); chain MEGDAVEAIVEESETFIKGKERKTYQRRREGGQEEDACHLPQNQTDGGEVVQDVNSSVQMVMMEQLDPTLLQMKTEVMEGTVAPEAEAAVDDTQIITLQVVNMEEQPINIGELQLVQVPVPVTVPVATTSVEELQGAYENEVSKEGLAESEPMICHTLPLPEGFQVVKVGANGEVETLEQGELPPQEDPSWQKDPDYQPPAKKTKKTKKSKLRYTEEGKDVDVSVYDFEEEQQEGLLSEVNAEKVVGNMKPPKPTKIKKKGVKKTFQCELCSYTCPRRSNLDRHMKSHTDERPHKCHLCGRAFRTVTLLRNHLNTHTGTRPHKCPDCDMAFVTSGELVRHRRYKHTHEKPFKCSMCDYASVEVSKLKRHIRSHTGERPFQCSLCSYASRDTYKLKRHMRTHSGEKPYECYICHARFTQSGTMKMHILQKHTENVAKFHCPHCDTVIARKSDLGVHLRKQHSYIEQGKKCRYCDAVFHERYALIQHQKSHKNEKRFKCDQCDYACRQERHMIMHKRTHTGEKPYACSHCDKTFRQKQLLDMHFKRYHDPNFVPAAFVCSKCGKTFTRRNTMARHADNCAGPDGVEGENGGETKKSKRGRKRKMRSKKEDSSDSENAEPDLDDNEDEEEPAVEIEPEPEPQPVTPAPPPAKKRRGRPPGRTNQPKQNQPTAIIQVEDQNTGAIENIIVEVKKEPDAEPAEGEEEEAQPAATDAPNGDLTPEMILSMMDR
B2: ALDH7A1 A129P (Homo sapiens); chain MSTLLINQPQYAWLKELGLREENEGVYNGSWGGRGEVITTYCPANNEPIARVRQASVADYEETVKKAREAWKIWADIPAPKRGEIVRQIGDALREKIQVLGSLVSLEMGKILVEGVGEVQEYVDICDYPVGLSRMIGGPILPSERSGHALIEQWNPVGLVGIITAFNFPVAVYGWNNAIAMICGNVCLWKGAPTTSLISVAVTKIIAKVLEDNKLPGAICSLTCGGADIGTAMAKDERVNLLSFTGSTQVGKQVGLMVQERFGRSLLELGGNNAIIAFEDADLSLVVPSALFAAVGTAGQRCTTARRLFIHESIHDEVVNRLKKAYAQIRVGNPWDPNVLYGPLHTKQAVSMFLGAVEEAKKEGGTVVYGGKVMDRPGNYVEPTIVTGLGHDASIAHTETFAPILYVFKFKNEEEVFAWNNEVKQGLSSSIFTKDLGRIFRWLGPKGSDCGIVNVNIPTSGAEIGGAFGGEKHTGGGRESGSDAWKQYMRRSTCTINYSKDLPLAQGIKFQ
B3: Igf2 E-peptide E-peptide region (Mus musculus); chain RDVSTSQAVLPDDFPRYPVGKFFQYDTWRQSAGRLRRGLPALLRARRGRMLAKELKEFREAKRHRPLIVLPPKDPAHGGASSEMSSNHQ

For `WWC1 C-terminal truncation (Mus musculus)`, the relative co-precipitation was 1 fold (itself; co-IP; HEK293T; reference: wild-type KIBRA, higher = more self-association).
The co-precipitation decrease of `B1 (CTCF)` is reported as 50% (T1, itself; pull-down; nuclear extract; with: RNase A; reference: untreated, higher = greater loss).
For `amyloid beta fragment`, “relative band intensity” read 130% (itself; SDS-PAGE immunoblot; trimers, lipidated apoE4; reference: sample without apoE, higher = more trimer remaining).
The dimer band of `STEP61 (Rattus norvegicus)` is reported as 58.9% (itself; non-reducing SDS-PAGE and immunoblot; hippocampus, N-acetyl cysteine; reference: untreated aged control, higher = more dimer).
`F11R extracellular domain E61A/K63A` gave a koff of 0.14 s⁻¹ (itself; atomic force spectroscopy; 37 °C).
`HLA-DRA/HLA-DRB1 heterodimer, on cells (Homo sapiens)`: “fraction of 1-particle spots” 63 ± 10% (itself; single-particle fluorescence imaging).
Under “subunits per oligomer”, `CRYGS N15D/Q121E/N144D/N54D/Q93E (Homo sapiens)` is recorded as 2 (itself; SEC-MALS).
`PYCARD (Homo sapiens, UniProt Q9ULZ3-2)`: “backward rate constant” 0.005 h (itself; real-time NMR; 495 µM).
For `ClpX fragment T66C/P388C, Cys66-Cys388 disulfide (Escherichia coli)`, the Vmax decrease was 4 fold (itself; GFP-ssrA degradation; reduced with dithiothreitol, with: ClpP; reference: oxidized enzyme, higher = larger decrease).
The molecular brightness of `Nr3c1 (Mus musculus, UniProt P06537)` is reported as 1.71 fold (T2, itself; number and brightness microscopy; 3134-GR KO; nucleoplasm, in cells, with: Cort 100 nM; reference: monomeric control, higher = more oligomerised).
`B2 (ALDH7A1 A129P)` has a Kd of 5000 nM (T3, itself; AUC; 20 °C).
Under “RMS of bead motion”, `TFAM fragment K95A/Y99F/E106A/E112A/R116A, Alexa Fluor label on Cys49 (Homo sapiens)` is recorded as 193 nm (itself; tethered particle motion; DNA compaction).
`CENPA (Homo sapiens, UniProt P49450)` — result for “tagged to untagged ratio”: 2 ratio tagged:untagged (itself; co-IP).
Under “spots with two-step bleaching”, `ESR1 hormone-binding domain G521R` is recorded as 60% (itself; SiMPull; HeLa, lysate; 4-OHT treated; higher = more dimers).
For `cps-6 (Caenorhabditis elegans)`, the relative self-association was 56% (itself; co-IP; 3 days, in animals, with: paraquat 200 µM; reference: non-treated animals, higher = more association).
`Pcdh15 EC1-11 (Mus musculus) (sequence not shown)` has a Kd of 1800 nM (itself; AUC; pH 8.0, 25 °C, NaCl 150 mM, with: CaCl2 3 mM).
For `proNGF residues -121 to 118 three furin sites to alanine (Mus musculus)`, “subunits per oligomer” read 2 (itself; SEC-MALS).
`MMP9 proMMP-9, trimer E402A (Homo sapiens)` gave a multimer fraction of 30.3% (itself; non-reducing SDS-PAGE).
`TPDYLMQLMNDKKLMSSLPNFSGIFNHLERLLDEGISRVRKDMYNDTLNGSTEK (Qki 14-67 C35S/E48G (Mus musculus, UniProt Q9QYS9))` has a melting temperature of less than 15 °C (itself; CD thermal melting; 50 µM, homodimer).
`protein (UniProt O87963)` — result for “loop formation rate constant”: 0.15 s⁻¹ (itself; tethered particle motion; two-site DNA, dimers to tetramer).
`B3` gave a Kd of 2500 nM (T4, itself; fluorescence polarisation; apparent, self-association).
`Sh C96S/C301S/C308S/C505T (Drosophila melanogaster)`: “recovery time from inactivation” 170 ms (itself; paired-pulse electrophysiology; cysteine-less Shaker).
`PYCARD (Homo sapiens, UniProt Q9ULZ3)` — result for “backward rate constant”: 0.12 h (itself; real-time NMR; 697 µM).
`Rag1 fragment (Mus musculus)` — result for “relative dimer remaining”: 55% (itself; SEC; reference: dimer fraction before dialysis, higher = more dimer).
For `CBX5 chromoshadow domain (Homo sapiens) (sequence not shown)`, the Kd was 1100 nM (itself; ITC; dimerization).
With `ALDH12 fragment (Zea mays) (sequence not shown)` the Ka was 910000 M⁻¹ (itself; AUC; sedimentation equilibrium, dimer-tetramer model).

Some of these lines once more:
`PYCARD (Homo sapiens, UniProt Q9ULZ3)` — result for “backward rate constant”: 0.12 h (itself; real-time NMR; 697 µM).
`B3` gave a Kd of 2500 nM (T4, itself; fluorescence polarisation; apparent, self-association).
